Measured values gathered from unrelated publications.
“And” joins repeats or separate records; there may be more than shown. ± marks the error that the study gave.
ACHE: Acetylcholinesterase (ACHE, Homo sapiens, UniProt P22303)
UniProt P22303, sequence (whole entry, looked up): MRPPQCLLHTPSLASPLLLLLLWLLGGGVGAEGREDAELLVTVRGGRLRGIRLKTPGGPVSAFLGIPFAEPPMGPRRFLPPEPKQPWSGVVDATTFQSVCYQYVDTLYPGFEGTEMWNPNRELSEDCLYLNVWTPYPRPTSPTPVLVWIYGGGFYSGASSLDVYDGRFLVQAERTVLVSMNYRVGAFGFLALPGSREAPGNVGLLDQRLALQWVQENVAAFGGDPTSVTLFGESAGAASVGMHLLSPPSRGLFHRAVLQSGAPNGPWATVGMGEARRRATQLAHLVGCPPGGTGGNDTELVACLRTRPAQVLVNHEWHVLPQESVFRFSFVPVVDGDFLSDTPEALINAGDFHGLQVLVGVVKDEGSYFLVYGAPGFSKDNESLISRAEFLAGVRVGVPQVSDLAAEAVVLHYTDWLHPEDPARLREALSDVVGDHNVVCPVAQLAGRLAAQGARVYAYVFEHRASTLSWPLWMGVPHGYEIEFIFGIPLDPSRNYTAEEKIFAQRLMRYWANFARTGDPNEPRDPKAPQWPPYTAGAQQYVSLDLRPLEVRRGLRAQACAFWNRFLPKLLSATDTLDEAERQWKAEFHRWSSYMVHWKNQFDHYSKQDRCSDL
PFF0160c E182D: Dihydroorotate dehydrogenase (quinone), mitochondrial (PFF0160c, Plasmodium falciparum, UniProt Q08210, E182D)
UniProt A5GZW8, sequence (whole entry, looked up): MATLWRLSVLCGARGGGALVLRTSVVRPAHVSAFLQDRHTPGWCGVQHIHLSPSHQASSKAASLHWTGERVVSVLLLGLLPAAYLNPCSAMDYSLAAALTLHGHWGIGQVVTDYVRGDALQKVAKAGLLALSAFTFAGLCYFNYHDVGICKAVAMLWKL
UniProt Q007T0, sequence (whole entry, looked up): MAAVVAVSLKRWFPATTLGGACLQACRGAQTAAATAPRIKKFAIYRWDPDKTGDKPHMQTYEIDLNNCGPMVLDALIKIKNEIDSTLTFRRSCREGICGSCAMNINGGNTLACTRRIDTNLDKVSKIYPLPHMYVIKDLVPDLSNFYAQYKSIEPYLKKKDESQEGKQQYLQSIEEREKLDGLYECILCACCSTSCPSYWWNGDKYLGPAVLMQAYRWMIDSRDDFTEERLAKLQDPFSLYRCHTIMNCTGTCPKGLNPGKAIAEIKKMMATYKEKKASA
UniProt D0VWV4, sequence (whole entry, looked up): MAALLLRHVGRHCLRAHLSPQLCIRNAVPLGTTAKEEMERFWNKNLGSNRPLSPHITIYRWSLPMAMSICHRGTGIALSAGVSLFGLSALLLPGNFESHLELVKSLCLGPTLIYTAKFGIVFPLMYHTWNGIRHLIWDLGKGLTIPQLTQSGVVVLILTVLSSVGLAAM
UniProt P36544, sequence (whole entry, looked up): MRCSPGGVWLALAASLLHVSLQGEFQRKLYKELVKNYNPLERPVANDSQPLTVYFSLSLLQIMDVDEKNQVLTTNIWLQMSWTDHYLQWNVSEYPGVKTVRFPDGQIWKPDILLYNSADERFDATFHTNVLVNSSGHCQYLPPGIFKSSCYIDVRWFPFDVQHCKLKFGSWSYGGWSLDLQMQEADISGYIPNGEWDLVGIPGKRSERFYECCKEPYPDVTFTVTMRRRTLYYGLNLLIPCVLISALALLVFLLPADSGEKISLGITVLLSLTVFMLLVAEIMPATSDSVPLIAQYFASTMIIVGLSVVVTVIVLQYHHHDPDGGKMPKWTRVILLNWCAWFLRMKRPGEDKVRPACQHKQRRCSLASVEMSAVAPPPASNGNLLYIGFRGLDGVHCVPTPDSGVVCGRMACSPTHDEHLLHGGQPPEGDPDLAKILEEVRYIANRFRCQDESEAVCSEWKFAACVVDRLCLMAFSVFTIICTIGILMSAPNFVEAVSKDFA
UniProt P36896, sequence (whole entry, looked up): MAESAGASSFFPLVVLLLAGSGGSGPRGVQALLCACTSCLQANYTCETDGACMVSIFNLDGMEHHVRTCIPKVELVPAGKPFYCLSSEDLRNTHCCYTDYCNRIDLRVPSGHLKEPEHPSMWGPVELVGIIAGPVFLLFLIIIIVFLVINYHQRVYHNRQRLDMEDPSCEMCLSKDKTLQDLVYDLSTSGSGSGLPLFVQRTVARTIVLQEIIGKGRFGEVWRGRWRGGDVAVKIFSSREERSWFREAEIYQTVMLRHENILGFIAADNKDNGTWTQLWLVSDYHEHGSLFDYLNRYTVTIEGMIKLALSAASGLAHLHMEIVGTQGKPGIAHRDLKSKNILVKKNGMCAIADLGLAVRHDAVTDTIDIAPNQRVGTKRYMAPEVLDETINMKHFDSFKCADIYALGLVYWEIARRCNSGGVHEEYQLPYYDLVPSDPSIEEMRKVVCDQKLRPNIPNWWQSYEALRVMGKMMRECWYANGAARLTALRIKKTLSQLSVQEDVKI
UniProt Q9UGM1, sequence (whole entry, looked up): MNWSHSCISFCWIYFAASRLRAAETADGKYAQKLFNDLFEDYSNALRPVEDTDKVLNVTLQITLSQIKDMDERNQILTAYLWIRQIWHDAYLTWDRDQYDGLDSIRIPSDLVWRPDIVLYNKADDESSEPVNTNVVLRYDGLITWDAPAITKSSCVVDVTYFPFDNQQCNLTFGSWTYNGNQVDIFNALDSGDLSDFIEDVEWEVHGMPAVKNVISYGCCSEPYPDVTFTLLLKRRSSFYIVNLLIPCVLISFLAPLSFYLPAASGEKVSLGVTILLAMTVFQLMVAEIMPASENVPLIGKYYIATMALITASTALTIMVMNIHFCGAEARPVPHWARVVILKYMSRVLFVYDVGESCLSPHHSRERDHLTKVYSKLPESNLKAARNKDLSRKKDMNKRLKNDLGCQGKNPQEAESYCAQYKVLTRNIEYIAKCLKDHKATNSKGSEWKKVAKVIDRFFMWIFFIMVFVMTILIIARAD
UniProt P43088, sequence (whole entry, looked up): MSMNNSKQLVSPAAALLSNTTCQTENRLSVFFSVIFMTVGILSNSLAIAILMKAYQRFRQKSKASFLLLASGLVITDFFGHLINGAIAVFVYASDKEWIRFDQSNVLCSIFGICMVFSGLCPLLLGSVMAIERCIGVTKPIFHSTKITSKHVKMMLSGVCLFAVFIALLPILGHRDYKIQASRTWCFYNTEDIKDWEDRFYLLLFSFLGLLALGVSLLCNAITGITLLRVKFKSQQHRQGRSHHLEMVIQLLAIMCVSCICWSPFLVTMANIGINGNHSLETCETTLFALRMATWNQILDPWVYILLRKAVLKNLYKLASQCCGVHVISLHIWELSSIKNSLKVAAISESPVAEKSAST
UniProt P12104, sequence (whole entry, unmodified, looked up): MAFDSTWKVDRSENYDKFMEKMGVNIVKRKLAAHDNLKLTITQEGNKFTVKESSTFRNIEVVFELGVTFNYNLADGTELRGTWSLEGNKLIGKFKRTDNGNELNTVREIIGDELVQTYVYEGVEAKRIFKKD
UniProt Q04609, sequence (whole entry, looked up): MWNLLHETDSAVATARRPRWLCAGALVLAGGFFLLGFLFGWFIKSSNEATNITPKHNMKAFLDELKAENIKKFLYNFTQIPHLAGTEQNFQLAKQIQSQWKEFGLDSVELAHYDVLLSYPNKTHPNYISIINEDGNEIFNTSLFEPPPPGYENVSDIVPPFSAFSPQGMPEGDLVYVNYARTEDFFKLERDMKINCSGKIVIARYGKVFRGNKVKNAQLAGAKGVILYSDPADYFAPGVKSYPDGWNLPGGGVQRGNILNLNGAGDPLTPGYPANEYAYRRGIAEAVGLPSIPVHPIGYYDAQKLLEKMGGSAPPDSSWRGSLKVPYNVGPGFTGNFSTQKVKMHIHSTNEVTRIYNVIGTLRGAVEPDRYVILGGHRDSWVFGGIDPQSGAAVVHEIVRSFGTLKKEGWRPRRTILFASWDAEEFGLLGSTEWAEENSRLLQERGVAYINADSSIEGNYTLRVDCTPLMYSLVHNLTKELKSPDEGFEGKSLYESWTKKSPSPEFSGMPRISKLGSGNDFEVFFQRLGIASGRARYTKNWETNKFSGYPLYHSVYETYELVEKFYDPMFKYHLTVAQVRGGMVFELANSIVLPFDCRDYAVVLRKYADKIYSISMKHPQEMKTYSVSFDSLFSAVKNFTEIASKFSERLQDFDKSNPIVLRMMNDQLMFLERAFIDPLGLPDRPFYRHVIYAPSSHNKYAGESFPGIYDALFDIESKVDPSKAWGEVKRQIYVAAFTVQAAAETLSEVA
UniProt Q07440, sequence (whole entry, unmodified, looked up): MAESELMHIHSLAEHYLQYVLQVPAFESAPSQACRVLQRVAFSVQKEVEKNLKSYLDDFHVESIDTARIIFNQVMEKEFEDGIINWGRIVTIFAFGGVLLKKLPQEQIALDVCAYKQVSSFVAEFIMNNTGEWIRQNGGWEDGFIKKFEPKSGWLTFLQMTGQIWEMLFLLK
UniProt Q53H76, sequence (whole entry, looked up): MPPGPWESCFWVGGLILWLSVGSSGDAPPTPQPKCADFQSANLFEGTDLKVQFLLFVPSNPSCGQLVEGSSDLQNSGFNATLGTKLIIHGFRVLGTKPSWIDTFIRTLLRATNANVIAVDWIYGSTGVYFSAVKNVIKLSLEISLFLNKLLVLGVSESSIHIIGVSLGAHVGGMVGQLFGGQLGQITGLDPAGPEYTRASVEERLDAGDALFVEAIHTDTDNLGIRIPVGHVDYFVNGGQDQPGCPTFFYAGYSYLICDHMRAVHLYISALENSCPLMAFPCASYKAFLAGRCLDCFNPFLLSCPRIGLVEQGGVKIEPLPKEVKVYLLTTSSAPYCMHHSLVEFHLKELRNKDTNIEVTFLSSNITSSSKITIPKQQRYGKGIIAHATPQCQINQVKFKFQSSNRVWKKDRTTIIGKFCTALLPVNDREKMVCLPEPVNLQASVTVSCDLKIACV
UniProt Q96LB2, sequence (whole entry, looked up): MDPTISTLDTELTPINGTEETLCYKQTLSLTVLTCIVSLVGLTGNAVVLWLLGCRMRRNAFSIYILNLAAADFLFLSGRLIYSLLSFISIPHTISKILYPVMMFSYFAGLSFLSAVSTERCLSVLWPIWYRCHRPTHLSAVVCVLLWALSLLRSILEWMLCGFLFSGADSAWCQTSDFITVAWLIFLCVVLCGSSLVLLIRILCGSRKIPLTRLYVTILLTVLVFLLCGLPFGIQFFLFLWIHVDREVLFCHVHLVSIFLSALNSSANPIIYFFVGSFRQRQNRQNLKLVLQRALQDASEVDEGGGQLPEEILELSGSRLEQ

SMILES	target	assay	system	setting	scale	quantity	value
CC(=O)O[C@H]1C[C@@H]2CC[C@@H]3[C@H](CC[C@@]4(C)[C@H]3C[C@H]([N+]3(C)CCCCC3)[C@@H]4OC(C)=O)[C@@]2(C)C[C@@H]1[N+]1(C)CCCCC1	ACHE	–	biochemical	concentration not given	–	activity class	inactive
CCC[N+]1(CC)CCN(c2ccc(C#N)cc2)CC1.[I-]	Neuronal acetylcholine receptor; alpha9/alpha10 (Homo sapiens, UniProt Q9GZZ6+Q9UGM1)	current, agonist, two-electrode voltage clamp	Xenopus oocytes coexpressing rapsyn	α9 coexpressed with α10	relative to: ACh	Imax relative to ACh	0.73 ± 0.07
OC1Cc2ccccc2CC1N1CCC2(CC1)C(Br)=Cc1ccccc12 (racemic)	Vesicular acetylcholine transporter (Rattus norvegicus, UniProt Q62666)	–	rat liver (sigma2)	–	relative to: Ki sigma2 over Ki VAChT	selectivity ratio	440
Cc1nn(C)cc1-c1nc2c(N3CCN(Cc4ccc(Cl)cc4)CC3)c(Cl)cnc2[nH]1	COQ8B (Homo sapiens, UniProt Q96D53)	KINOMEscan	–	1 µM	relative to: DMSO control	remaining binding	45%
CC(=O)c1c(Cc2cccc(C(F)(F)F)c2)c[nH]c1C	PFF0160c E182D	enzyme activity, DCIP colorimetric	–	–	relative to: E182D mutant over wild type	IC50 ratio	0.2
N[C@@H](CO)COP(=O)(O)O	Cj1438c (Campylobacter jejuni, UniProt Q0P8H6)	substrate inhibition, PK/LDH coupled	–	pH 8.0, 25 °C, with: D-glucuronate 10 mM, ATP 3.0 mM	–	Ki	16 ± 3 mM
Nc1nc2c(ncn2[C@@H]2O[C@H](COP(=O)(O)OP(=O)(O)O[C@H]3O[C@H](CCO)C(=O)[C@H](O)[C@@H]3O)[C@@H](O)[C@H]2O)c(=O)[nH]1	CDP-sugar C4-reductase HS:53, Campylobacter jejuni	substrate	–	pH 7.5, 25 °C, no epimerase added, with: NADPH 300 µM	–	Km	83 ± 30 µM
C=C(CN(C(=O)c1c(C(F)F)nn(C)c1F)C1CC1)c1ccc(Cl)cc1Cl	SDHD/SDHC/SDHB (Sus scrofa, UniProt A5GZW8+D0VWV4+Q007T0)	enzyme activity, inhibitor, DCIP reduction	pig	0.1 µM, with: DCIP 20 µM	–	reaction velocity	0.00682 µM/s and 0.00691 µM/s and 0.00698 µM/s
COc1ccc2[nH]c3c(c2c1)CCN(C)CC3.Cl	CHRNA7 (Homo sapiens, UniProt P36544)	ion current, inhibitor, two-electrode voltage clamp	Xenopus laevis oocytes	10 µM, human receptor, with: acetylcholine 100 µM	–	recovery time constant	8.7 s
CCSc1nnc(C2CCCN(CC(=O)Nc3cc(C(F)(F)F)ccc3Cl)C2)n1CC (stereo not drawn)	PFF0160c E182D	enzyme activity, DCIP colorimetric	–	–	relative to: E182D mutant over wild type	IC50 ratio	4
O=C(Nc1cnccc1Cl)N1CCN(Cc2ccc3c(c2)OC(F)(F)O3)CC1	PTGFR (Homo sapiens, UniProt P43088)	radioligand binding, inhibitor	–	10 µM, human, with: [3H]PGF2alpha	–	inhibition	-14%
c1ccc2c3c(ccc2c1)-c1cccc2cccc-3c12	Aryl hydrocarbon receptor (Danio rerio, UniProt Q9YGV3)	reporter gene, agonist, luciferase reporter	ZF-4	3333.33 µM	relative to: vehicle control	fold change	17.2
CN(C(=O)n1cnc(-c2ccc[n+]([O-])c2)c1)C1CCCCC1	androgen-induced gene 1 protein (Rattus norvegicus, UniProt F7EZV5)	enzyme activity, ABPP	rat, brain	oral, 30 mg/kg/day, 28 days	relative to: vehicle	fold change	-2.1
O=C(c1ccc(Cl)cc1)N1CCN2C(=O)N(OC(=O)N3CCOc4ccccc43)C(=O)C2C1 (stereo not drawn)	Phospholipase A1 member A (PLA1A, Homo sapiens, UniProt Q53H76)	enzyme activity, inhibitor, MS-based ABPP	SW-620 conditioned medium	10 µM, 1 h, 37 °C	relative to: compound over DMSO, lower = stronger inhibition	median ratio	0.7
C[C@H]1CN(c2n[nH]c3nc(N[C@H]4CC[C@H](NS(=O)(=O)CCC(F)(F)F)CC4)ncc23)CCO1	Isoleucine--tRNA ligase, cytoplasmic (Homo sapiens, UniProt P41252)	Kinobeads competition, item: IARS	–	0.032 µM, unit not given	relative to: vehicle	remaining binding	0.84
O=S(=O)(O)c1ccc2c(N=Nc3c(O)ccc4ccccc34)cccc2c1	Bcl-2-related protein A1 (Mus musculus, UniProt Q07440, C113S/P104K)	differential scanning fluorimetry	–	100 µM	–	delta Tm	14.8 °C
COc1cc(Nc2ccnc3cc(-c4ccncc4)ccc23)cc(OC)c1OC.Cl	PFF0160c E182D	enzyme activity, DCIP colorimetric	–	–	relative to: E182D mutant over wild type	IC50 ratio	0.8
CC(=O)NC[C@H]1[C@H](O)[C@H](O)[C@@H]2[C@H](O)C[C@@H](CO)N21	Spodoptera litura β-N-acetylglucosaminidase	–	crude enzyme	0.0125 µM, run 2, with: p-nitrophenyl GlcNAc	–	inhibition	47.7%
CC(C(O)c1ccccc1)N(C)CCOC(c1ccccc1)c1ccccc1 (stereo not drawn)	ACHE	–	biochemical	concentration not given	–	activity class	inactive
CC1(C)CN(CCCCC(=O)N[C@H](Cc2ccc(O)c(I)c2)C(=O)N[C@H](Cc2ccccc2)C(=O)N[C@H](CCCCNC(=O)CCCCCCC(=O)NCCCC[C@H](NC(=O)N[C@@H](CCC(=O)O)C(=O)O)C(=O)O)C(=O)O)CC[N]2CC(C)(C)[S][Tc]2(=[O])[S]1 (stereo partly drawn) [technetium-99m labelled]	FOLH1 (Homo sapiens, UniProt Q04609)	saturation binding	LNCaP	–	–	Bmax	10.4 µmol/mg
Cc1oc(-c2ccccc2)nc1CCOc1cccc2c1ccn2CCC(=O)O	Fatty acid-binding protein, intestinal (Homo sapiens, UniProt P12104, T55A)	binding, affinity selection mass spectrometry	–	100 nM, pooled screen	relative to: other proteins	fold change	32.5
COc1cc(N)c(Cl)cc1C(=O)NC1CN2CCC1CC2 (stereo not drawn)	MRGPRX1 (Homo sapiens, UniProt Q96LB2)	β-arrestin recruitment, TANGO luminescence	–	concentration not given	relative to: basal luminescence	log2 fold change	0.439
CN1CCN(c2cc(-c3ccncc3)c(-c3ccc4ccccc4c3)nn2)CC1	LPAR5 (Homo sapiens, UniProt Q9H1C0)	agonist, FLIPR	–	12.5 µM	–	activation	12.2%
COc1ccc(Nc2nn3c(-c4ccccc4)ccnc3c2C(=O)Nc2ccc(Cl)cc2)cc1	α-amylase isoenzymes	native PAGE densitometry, item: abnormal band	–	1 mg/mL	–	band share	50.5%
[2H]c1c([2H])c([C@]2([2H])CCCN2C(=O)C(C)(C)Oc2ccc3cn[nH]c3c2)c([2H])c([2H])c1C([2H])([2H])[2H]	ACVR1B (Homo sapiens, UniProt P36896)	KINOMEscan	–	1 µM	relative to: DMSO control	remaining binding	81%
Nc1ccn([C@H]2C[C@H](O)[C@@H](COP(=O)(O)OP(=O)(O)OP(=O)(O)O)O2)c(=O)n1	DNA polymerase I, Klenow fragment (polA, Escherichia coli, UniProt P00582, C907S/D424A/L744C/Y766A)	substrate, single-turnover chemical quench	–	with: dNTP	–	kpol	25 s⁻¹
COc1ccc(N2C(=O)N(c3c(C)cccc3Cl)Cc3cnc(Nc4ccc(C5CCN(C)CC5)cc4OC)nc32)nc1	PRKG1 (Homo sapiens, UniProt Q13976)	kinase activity	–	0.5 µM	–	inhibition	4%

A few entries again:
SMILES	target	assay	system	setting	scale	quantity	value
O=C(Nc1cnccc1Cl)N1CCN(Cc2ccc3c(c2)OC(F)(F)O3)CC1	PTGFR (Homo sapiens, UniProt P43088)	radioligand binding, inhibitor	–	10 µM, human, with: [3H]PGF2alpha	–	inhibition	-14%
OC1Cc2ccccc2CC1N1CCC2(CC1)C(Br)=Cc1ccccc12 (racemic)	Vesicular acetylcholine transporter (Rattus norvegicus, UniProt Q62666)	–	rat liver (sigma2)	–	relative to: Ki sigma2 over Ki VAChT	selectivity ratio	440
